Results from different studies.
Each line is one published result; not all experiments were run side by side.
Sequence of UniProt Q8NE63 (whole entry, looked up): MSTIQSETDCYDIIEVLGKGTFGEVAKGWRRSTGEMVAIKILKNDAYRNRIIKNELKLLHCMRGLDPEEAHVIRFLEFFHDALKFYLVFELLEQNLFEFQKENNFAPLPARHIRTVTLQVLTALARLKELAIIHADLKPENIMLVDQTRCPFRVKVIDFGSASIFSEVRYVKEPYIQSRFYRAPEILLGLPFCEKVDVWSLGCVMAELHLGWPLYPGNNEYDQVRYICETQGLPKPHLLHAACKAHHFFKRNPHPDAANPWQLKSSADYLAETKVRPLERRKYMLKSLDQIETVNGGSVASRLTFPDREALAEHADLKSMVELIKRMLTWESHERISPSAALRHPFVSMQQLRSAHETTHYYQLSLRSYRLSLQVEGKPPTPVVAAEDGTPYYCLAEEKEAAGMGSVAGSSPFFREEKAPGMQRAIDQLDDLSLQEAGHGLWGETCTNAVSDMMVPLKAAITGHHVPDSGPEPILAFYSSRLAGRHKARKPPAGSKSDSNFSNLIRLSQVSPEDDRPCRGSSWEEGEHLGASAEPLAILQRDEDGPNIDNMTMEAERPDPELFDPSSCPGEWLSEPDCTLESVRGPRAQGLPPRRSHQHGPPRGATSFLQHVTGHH
Sequence of UniProt Q9Y3S1 (whole entry, looked up): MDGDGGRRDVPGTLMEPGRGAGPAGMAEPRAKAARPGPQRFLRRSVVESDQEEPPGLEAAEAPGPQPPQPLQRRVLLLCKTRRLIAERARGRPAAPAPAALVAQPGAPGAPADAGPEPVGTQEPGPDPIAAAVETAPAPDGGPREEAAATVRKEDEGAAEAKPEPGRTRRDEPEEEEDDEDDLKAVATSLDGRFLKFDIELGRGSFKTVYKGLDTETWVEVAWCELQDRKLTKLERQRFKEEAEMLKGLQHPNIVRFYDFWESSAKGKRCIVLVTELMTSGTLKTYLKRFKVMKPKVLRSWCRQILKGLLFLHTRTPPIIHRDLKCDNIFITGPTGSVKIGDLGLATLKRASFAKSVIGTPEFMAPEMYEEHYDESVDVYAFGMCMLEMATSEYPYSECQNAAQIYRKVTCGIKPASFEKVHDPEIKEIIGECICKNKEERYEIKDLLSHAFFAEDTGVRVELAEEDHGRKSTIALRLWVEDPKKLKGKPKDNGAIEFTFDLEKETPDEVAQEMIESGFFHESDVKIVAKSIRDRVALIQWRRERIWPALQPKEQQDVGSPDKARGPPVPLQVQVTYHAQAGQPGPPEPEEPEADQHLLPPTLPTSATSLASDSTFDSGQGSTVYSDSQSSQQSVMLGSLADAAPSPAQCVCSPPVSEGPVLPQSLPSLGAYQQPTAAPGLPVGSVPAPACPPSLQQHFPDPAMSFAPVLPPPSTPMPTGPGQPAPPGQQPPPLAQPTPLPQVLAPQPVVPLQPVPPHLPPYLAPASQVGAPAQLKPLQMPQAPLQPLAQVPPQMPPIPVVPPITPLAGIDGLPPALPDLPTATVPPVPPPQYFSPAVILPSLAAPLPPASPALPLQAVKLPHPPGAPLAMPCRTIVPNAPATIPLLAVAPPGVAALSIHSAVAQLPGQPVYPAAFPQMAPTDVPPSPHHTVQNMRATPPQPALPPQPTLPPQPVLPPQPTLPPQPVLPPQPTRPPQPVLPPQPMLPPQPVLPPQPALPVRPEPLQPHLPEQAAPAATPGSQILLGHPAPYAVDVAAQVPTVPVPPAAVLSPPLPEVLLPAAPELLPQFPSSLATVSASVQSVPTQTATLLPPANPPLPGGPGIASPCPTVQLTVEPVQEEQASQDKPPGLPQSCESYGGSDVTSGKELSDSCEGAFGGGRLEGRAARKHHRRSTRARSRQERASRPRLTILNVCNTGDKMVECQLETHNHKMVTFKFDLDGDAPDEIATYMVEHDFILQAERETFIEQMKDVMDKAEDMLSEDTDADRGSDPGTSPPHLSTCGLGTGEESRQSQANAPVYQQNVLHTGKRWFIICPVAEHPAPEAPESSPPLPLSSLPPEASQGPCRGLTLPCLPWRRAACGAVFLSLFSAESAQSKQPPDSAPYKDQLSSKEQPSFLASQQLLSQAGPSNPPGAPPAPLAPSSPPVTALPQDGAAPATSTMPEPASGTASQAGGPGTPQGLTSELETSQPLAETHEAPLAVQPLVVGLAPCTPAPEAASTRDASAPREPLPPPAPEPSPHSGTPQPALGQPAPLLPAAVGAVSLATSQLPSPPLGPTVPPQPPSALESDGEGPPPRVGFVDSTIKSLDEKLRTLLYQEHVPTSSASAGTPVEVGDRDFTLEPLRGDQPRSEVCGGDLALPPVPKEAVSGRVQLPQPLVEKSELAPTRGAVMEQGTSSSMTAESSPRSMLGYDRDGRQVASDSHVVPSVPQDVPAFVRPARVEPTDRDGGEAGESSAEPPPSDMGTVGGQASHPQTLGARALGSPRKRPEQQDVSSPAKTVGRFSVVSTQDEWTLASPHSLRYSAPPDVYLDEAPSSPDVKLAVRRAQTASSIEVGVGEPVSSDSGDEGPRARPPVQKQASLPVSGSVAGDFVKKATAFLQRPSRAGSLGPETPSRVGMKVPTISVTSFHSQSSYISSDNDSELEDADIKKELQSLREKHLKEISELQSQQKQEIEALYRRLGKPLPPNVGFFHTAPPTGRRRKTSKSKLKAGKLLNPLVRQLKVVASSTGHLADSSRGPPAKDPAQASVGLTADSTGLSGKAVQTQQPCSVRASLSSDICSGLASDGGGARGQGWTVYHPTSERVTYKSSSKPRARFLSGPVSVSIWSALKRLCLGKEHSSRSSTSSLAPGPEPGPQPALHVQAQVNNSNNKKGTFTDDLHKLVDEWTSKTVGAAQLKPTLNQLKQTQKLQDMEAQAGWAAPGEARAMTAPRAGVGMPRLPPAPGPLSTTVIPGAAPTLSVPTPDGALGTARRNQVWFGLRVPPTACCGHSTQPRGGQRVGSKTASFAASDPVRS
Sequence of UniProt Q9ULC6 (whole entry, looked up): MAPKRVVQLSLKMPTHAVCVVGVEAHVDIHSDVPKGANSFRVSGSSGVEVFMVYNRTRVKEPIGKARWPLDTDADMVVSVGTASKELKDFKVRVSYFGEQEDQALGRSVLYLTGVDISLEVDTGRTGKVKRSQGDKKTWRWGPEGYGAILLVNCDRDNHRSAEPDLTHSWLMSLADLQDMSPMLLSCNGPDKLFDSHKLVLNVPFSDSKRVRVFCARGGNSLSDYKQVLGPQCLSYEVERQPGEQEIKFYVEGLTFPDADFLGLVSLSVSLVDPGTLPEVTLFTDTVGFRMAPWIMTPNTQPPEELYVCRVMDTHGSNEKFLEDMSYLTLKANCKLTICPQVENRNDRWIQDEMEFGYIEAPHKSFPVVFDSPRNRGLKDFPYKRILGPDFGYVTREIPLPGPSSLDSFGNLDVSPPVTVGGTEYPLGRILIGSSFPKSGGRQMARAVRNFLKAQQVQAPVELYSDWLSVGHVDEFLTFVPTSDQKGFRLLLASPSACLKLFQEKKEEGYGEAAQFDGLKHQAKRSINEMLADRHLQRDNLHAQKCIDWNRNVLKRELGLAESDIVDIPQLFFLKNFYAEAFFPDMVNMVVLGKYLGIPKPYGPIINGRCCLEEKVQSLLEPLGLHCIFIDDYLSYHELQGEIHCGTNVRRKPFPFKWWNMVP
Sequence of UniProt Q96L34 (whole entry, looked up): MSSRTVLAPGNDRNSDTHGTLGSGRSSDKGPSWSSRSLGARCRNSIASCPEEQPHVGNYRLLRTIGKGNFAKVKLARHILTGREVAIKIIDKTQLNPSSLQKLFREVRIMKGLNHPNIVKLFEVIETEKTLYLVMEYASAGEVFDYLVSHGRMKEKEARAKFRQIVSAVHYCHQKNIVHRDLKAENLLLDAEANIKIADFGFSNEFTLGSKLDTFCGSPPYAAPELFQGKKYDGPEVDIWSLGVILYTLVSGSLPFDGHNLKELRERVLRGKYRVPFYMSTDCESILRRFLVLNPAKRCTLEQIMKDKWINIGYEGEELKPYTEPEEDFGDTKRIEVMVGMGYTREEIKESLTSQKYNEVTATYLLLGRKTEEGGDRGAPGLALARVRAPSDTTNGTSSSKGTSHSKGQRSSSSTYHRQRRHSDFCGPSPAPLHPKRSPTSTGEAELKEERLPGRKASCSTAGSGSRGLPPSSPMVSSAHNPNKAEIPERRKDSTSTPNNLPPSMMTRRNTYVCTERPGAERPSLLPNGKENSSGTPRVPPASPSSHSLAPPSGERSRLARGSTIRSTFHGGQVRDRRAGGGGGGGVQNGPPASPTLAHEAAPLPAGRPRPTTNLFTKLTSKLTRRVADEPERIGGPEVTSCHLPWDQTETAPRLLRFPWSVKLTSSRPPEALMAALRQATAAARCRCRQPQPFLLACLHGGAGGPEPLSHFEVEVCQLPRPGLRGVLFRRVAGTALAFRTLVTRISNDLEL
Sequence of UniProt P49137 (whole entry, looked up): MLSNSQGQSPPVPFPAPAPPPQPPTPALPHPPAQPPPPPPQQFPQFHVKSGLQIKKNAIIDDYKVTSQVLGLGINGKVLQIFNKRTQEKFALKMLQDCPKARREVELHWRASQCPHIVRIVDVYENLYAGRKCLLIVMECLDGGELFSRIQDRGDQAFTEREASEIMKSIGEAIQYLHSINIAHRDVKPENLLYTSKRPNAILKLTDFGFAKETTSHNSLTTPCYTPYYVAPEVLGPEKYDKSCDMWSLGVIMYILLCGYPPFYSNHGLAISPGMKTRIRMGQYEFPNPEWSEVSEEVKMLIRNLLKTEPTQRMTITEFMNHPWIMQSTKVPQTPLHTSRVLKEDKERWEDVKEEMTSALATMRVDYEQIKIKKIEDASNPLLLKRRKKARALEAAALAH

| Compound | target | test | system | setting | inhibition [%] |
| --- | --- | --- | --- | --- | --- |
| N[C@H](C(=O)N1CCCC1)C1CCN(c2nccc3c(-c4ncc(Cl)cc4Cl)cccc23)CC1 | PADI1 (Homo sapiens, UniProt Q9ULC6) | enzyme activity, inhibitor | – | 3.84 µM | 95.6 |
| COc1ccc(F)cc1S(=O)(=O)Nc1cnc2c(c1)C(=O)NCCO2 | GABAA receptor | radioligand binding | central | 10 µM, with: flunitrazepam | 2 |
| O=C(CN1CN(c2ccccc2)C2(CCN(C(=O)c3cnc4[nH]ncc4c3)CC2)C1=O)NCC(F)(F)F | MARK4 (Homo sapiens, UniProt Q96L34) | inhibitor | – | concentration not given | < 50 |
| CS(C)(=O)=Nc1ccc(-c2ccc(-c3nc4cc(O[C@@H]5CO[C@H]6[C@@H]5OC[C@H]6O)[nH]c4cc3F)cc2)cc1 | WNK2 (Homo sapiens, UniProt Q9Y3S1) | enzyme activity, inhibitor | – | 10 µM | 26 |
| CN(C)[C@H]1C[C@@]23CC[C@@]4(O2)C(=CC[C@]2(C)[C@@H](c5ccc6ccncc6c5)CC[C@H]24)C=C3[C@@H](O)[C@@H]1O | ATR (Homo sapiens, UniProt Q13535) | ATP probe labelling, inhibitor, KiNativ profiling | – | 1 µM | -3.9 |
| C[C@H](NCc1ccc(-c2ccc(C(F)(F)F)cc2)cc1)C(N)=O | MAPKAPK2 (Homo sapiens, UniProt P49137) | cell-free assay, competition with immobilised ligand | – | 1 µM | 21 |
| CC(=O)NC[C@@H]1[C@@H](O)C[C@H]2[C@H](O)C[C@@H](CO)N12 | human placental β-N-acetylglucosaminidase | – | – | 0.0107 µM, run 1, with: p-nitrophenyl GlcNAc | 18.8 |
| CC(C)[C@H]1NC(=O)C[C@H]2/C=C/CCSSC[C@@H](NC1=O)C(=O)N[C@H](Cc1cccc3ccccc13)C(=O)NCC(=O)O2 | HIPK4 (Homo sapiens, UniProt Q8NE63) | enzyme activity, inhibitor | – | 10 µM | 3.1 |
| O=C(NC1CCN(c2ncnc3[nH]cnc23)CC1)c1cccc(NS(=O)(=O)c2ccc(C(F)(F)F)cc2)c1 | Genome polyprotein, NS5 methyltransferase domain (Zika virus, UniProt Q32ZE1) | NS5 enzyme activity, inhibitor | – | 3.125 µM | 3.59 |

Repeated from above:
| Compound | target | test | system | setting | inhibition [%] |
| --- | --- | --- | --- | --- | --- |
| N[C@H](C(=O)N1CCCC1)C1CCN(c2nccc3c(-c4ncc(Cl)cc4Cl)cccc23)CC1 | PADI1 (Homo sapiens, UniProt Q9ULC6) | enzyme activity, inhibitor | – | 3.84 µM | 95.6 |
